# Experimental data gathered from unrelated publications.
# Compare with care: the assays were run in different laboratories. ± gives the spread as reported.
# Chain of UniProt P31749 (whole entry, looked up): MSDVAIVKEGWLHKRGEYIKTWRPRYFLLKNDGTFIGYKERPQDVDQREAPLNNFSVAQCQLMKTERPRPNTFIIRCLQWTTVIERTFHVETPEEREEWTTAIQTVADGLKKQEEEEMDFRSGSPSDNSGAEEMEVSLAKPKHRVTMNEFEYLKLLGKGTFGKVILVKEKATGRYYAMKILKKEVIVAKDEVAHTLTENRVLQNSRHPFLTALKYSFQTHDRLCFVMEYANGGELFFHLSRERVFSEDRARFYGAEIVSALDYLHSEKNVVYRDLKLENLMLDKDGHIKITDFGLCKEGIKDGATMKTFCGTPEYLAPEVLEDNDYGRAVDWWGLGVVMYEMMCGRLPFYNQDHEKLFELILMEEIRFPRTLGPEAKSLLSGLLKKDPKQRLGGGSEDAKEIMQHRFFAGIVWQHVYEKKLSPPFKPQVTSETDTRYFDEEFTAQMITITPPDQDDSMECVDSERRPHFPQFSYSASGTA
Compound,target or system,test,system,setting,how to read,endpoint,result
CCCC[C@H](NC(=O)CNC(=O)CNC(=O)[C@H](CCCCNC(=O)[C@H](CC(=O)O)NC(=O)C(C)c1ccc(CC(C)C)cc1)NC(=O)CN1CCN(CC(=O)O)CCN(CC(=O)O)CCN(CC(=O)O)CC1)C(=O)N[C@H]1CC(=O)NCCCC[C@@H](C(N)=O)NC(=O)[C@H](Cc2c[nH]c3ccccc23)NC(=O)[C@H](CCCNC(=N)N)NC(=O)[C@@H](Cc2ccccc2)NC(=O)[C@H](Cc2c[nH]cn2)NC1=O (stereo partly drawn) [lutetium-177 labelled],,,"C57 mice, tumour","intravenous, 0.037 MBq, 0.5 h",relative to: kidney,tumour-to-tissue ratio,1.38
CCCC[C@H](NC(=O)CCCCCCCNC(=O)CN1CCN(CC(=O)O)CCN(CC(=O)O)CC1)C(=O)N[C@H]1CC(=O)NCCCC[C@@H](C(N)=O)NC(=O)[C@H](Cc2c[nH]c3ccccc23)NC(=O)[C@H](CCCNC(=N)N)NC(=O)[C@@H](Cc2ccccc2)NC(=O)[C@H](Cc2c[nH]cn2)NC1=O [technetium-99m labelled],,,"C57 mouse, lung","intravenous, 0.037 MBq, 2 h",,tissue uptake,1.49 ± 0.88 %ID/g
COC1CN([C@H]2CC[C@H]([C@@]3(C)Oc4c(Cl)cc(C(=O)NCc5c(SC)cc(C)[nH]c5=O)c(C)c4O3)CC2)C1,,"RNA-seq, measured: RIDA","human, whole blood","dose not given, 24 h",relative to: pretreatment baseline,log2 fold change,2.3
COc1cccc(OC)c1-c1cc(C(=O)NC2(C(=O)O)C3CC4CC(C3)CC2C4)nn1-c1ccc(C(=O)N(C)CCCN(C)C(=O)[C@H](CCCCNC(=O)[C@H](CC(C)C)NC(=O)C2OC2C(=O)O)NC(=O)CN2CCN(CC(=O)[O-])CCN(CC(=O)[O-])CCN(CC(=O)[O-])CC2)cc1C(C)C.[177Lu+3] (mixture of isomers),,,"mouse, HT-29 xenograft","24 h post injection, biodistribution",relative to: tumour over lung uptake,tumour-to-lung ratio,1.56
O=C1CCC(N2Cc3cc(C(=O)O)c(F)cc3C2=O)C(=O)N1 (stereo not drawn),,,"male cynomolgus monkey, plasma","oral, 0.3 mg/kg of parent drug",,half-life,4.9 ± 2.2 h
C=CC(=O)Nc1cc(Nc2nccc(-c3c[nH]c4ccccc34)n2)c(OC)cc1N(C)CCN(C)C,,storage stability,human plasma,"10 d, -80 °C, LLOQ level",,recovery,101%
C=CC(=O)Nc1cccc(Cn2ncc3cnc(Nc4cnn(CCOC)c4)nc32)c1,ADCK3 human,"binding, KINOMEscan",,100 nM,lower = stronger binding,percent of control,100%
CCCCN1C(=O)c2cccc3c(NCCCCCCCCCCN4CCOCC4)ccc(c23)C1=O,,,DMF,,,fluorescence quantum yield,0.98
Cc1nn(-c2cccc(N)c2)c(=O)c2cnc(Nc3ccc(N4CCNCC4)cc3)nc12,"AKT1 (Homo sapiens, UniProt P31749)","enzyme activity, inhibitor",,,,IC50,3.6 µM
Cc1n[nH]c(C)c1CCCOc1cc(C(=O)NCCCCC(NC(=O)CN2CCN(CC(=O)[O-])CCN(CC(=O)[O-])CCN(CC(=O)[O-])CC2)C(=O)NCC2CCC(C(=O)NC(Cc3ccc4ccccc4c3)C(=O)NCCCCC(NC(=O)NC(CCC(=O)O)C(=O)O)C(=O)O)CC2)ccc1F.[68Ga+3] (stereo not drawn),,micro-PET/CT,"mouse 22Rv1 xenograft, tumour",4 h post-injection,,maximum tumour uptake,18.1 ± 1.19 %ID/g
O=C(Nc1cnccc1-c1ccc([18F])nc1)c1ccnc(NC(=O)C2CC2)c1,,ex vivo gamma counting,"FVB/NJ mice, both sexes, left kidney","intravenous, 120 min, added: tariquidar 15 mg/kg iv",,mean SUV,0.431
CNS(=O)(=O)Nc1nccc(Cc2c(C)c3ccc(Oc4ncccc4F)cc3oc2=O)c1F,LN-229,cell viability,,7 days,,IC50,0.0469 µM
O=C([O-])CN1CCN(CC(=O)[O-])CCN(C(CO)C(O)CO)CCN(CC(=O)[O-])CC1.[Dy+3] (stereo not drawn),,,"female cynomolgus monkey, plasma","intravenous, dose not given",,effective half-life,1.21 h
CC(=O)N([O-])CCCCCNC(=O)CCC(=O)N([O-])CCCCCNC(=O)CCC(=O)N([O-])CCCCCN.[89Zr+4],,radio-TLC,aqueous buffer,"5 d, pH 5, 37 °C, 89Zr-labelled complex, added: DTPA 1000-fold excess",,intact complex,68.9 ± 2%
C=C(NC(=O)c1csc(-c2nc3c(cc2O)-c2nc(cs2)C(=O)NC(C(C)O)C(=O)NC(=C(C)OC)c2nc(cs2)C(=O)NC2c4nc(cs4)C(=O)NC(COC(=O)c4c5c6c(cccc6n4O)COC(=O)C(OC4CC(C)(O)C(N(C)C)C(C)O4)C2OC5)c2nc-3cs2)n1)C(N)=O (stereo not drawn),,,"cynomolgus monkey, both sexes, plasma","intravenous infusion, 1.5 mg/kg twice daily, 0 to 6 h, first dose",,half-life,0.91 ± 0.07 h
Cc1ncsc1-c1ccc(C(C)NC(=O)C2CC(O)CN2C(=O)C(NC(=O)CCCCCCCCCCN2CCCC(Nc3ncc(Cl)c(Nc4ccccc4S(=O)(=O)C(C)C)n3)C2)C(C)(C)C)cc1 (stereo not drawn),22Rv1,"RNA-seq, measured: SMG9 mRNA",,concentration not given,relative to: DMSO,log2 fold change,-1.1
CC(C)(O)c1ncc([S@](N)(=O)=NC(=O)Nc2c3c(cc4c2CCC4)CCC3)s1,,,human urine,-20 °C or below,,storage stability,≥ 130 days
COc1cccc(OC)c1-c1cc(C(=O)NC2(C(=O)O)C3CC4CC(C3)CC2C4)nn1-c1ccc(C(=O)NCCNC(=O)[C@H](CCCCNC(=O)[C@H](CC(C)C)NC(=O)C2OC2C(=O)O)NC(=O)CN2CCN(CC(=O)[O-])CCN(CC(=O)[O-])CCN(CC(=O)[O-])CC2)cc1C(C)C.[177Lu+3] (mixture of isomers),,,mouse HT-29 xenograft,"24 h, biodistribution",relative to: tumour over small intestine,tumour-to-small intestine ratio,15.1

# Repeated from above:
Compound,target or system,test,system,setting,how to read,endpoint,result
C=CC(=O)Nc1cccc(Cn2ncc3cnc(Nc4cnn(CCOC)c4)nc32)c1,ADCK3 human,"binding, KINOMEscan",,100 nM,lower = stronger binding,percent of control,100%
COc1cccc(OC)c1-c1cc(C(=O)NC2(C(=O)O)C3CC4CC(C3)CC2C4)nn1-c1ccc(C(=O)NCCNC(=O)[C@H](CCCCNC(=O)[C@H](CC(C)C)NC(=O)C2OC2C(=O)O)NC(=O)CN2CCN(CC(=O)[O-])CCN(CC(=O)[O-])CCN(CC(=O)[O-])CC2)cc1C(C)C.[177Lu+3] (mixture of isomers),,,mouse HT-29 xenograft,"24 h, biodistribution",relative to: tumour over small intestine,tumour-to-small intestine ratio,15.1
